Measured values pooled from the literature.
Each line is one published result; not all experiments were run side by side. Numbers after ± are the reported error.

| Structure (SMILES) | species | medium | route | dose | time | setting | concentration |
| --- | --- | --- | --- | --- | --- | --- | --- |
| O=S(=O)(c1ccc(-c2ccc3nccc(Nc4ccncn4)c3c2)cc1)N1CCOCC1 | female BALB/c mouse | plasma | intraperitoneal | 10 mg/kg | 0.25 h | – | 3560 ng/mL |
| O=C(N[C@H](Cc1c[nH]c2ccccc12)C(=O)Nc1ccncc1)c1ccc(N2CCN(c3ccc(F)cc3F)CC2)cc1F | Swiss Webster mouse, female | heart | oral | 50 mg/kg | 2 h | 20% Kolliphor vehicle | 17.6 µM |
| CN(C)C(=O)c1cc2cnc(Nc3ccc(-c4ccc5c(=O)cc(N6CCOCC6)oc5c4)cc3)nc2n1C1CCCC1 | BALB/c mouse | kidney | oral | 20 mg/kg | 2 h | – | 2340 ± 1830 ng/g |
| Cn1cc([C@H]2C[C@H]3CSC(N)=N[C@@]3(c3ccc(F)cc3F)CO2)cn1 | mouse 129/SVE male | plasma | subcutaneous | 3 mg/kg | 3 h | – | 0.069 µM |
| CSc1cc(Oc2ccnc3[nH]c(=O)cnc23)ccc1NC(=O)Nc1cc(C(C)(C)C)nn1-c1ccccc1 | NSG mouse (female) | plasma | oral | 20 mg/kg | 1 h after last dose | end of therapy | 48.6 µM |
| COc1ccc2c3c([nH]c2c1)[C@H](CC(C)C)N1C(=O)[C@H](CC(=O)NC(C)C)NC(=O)[C@@H]1C3 | wild-type mouse, male | serum | oral | 100 mg/kg | 1 h | – | 33.1 µM |
| CN1CCCC1CCNS(=O)(=O)c1ccc2c(c1)CN(CC1CCCCC1)CC2 (stereo not shown) | THY-Tau22 mouse | plasma | oral in diet | 0.02% in diet | 6 months | sampled at 8 p.m. | 56.2 ng/mL |
| CC(C)(C)c1cc(NC(=O)Nc2ccc(Oc3ccnc4[nH]c(=O)cnc34)cc2F)n(-c2ccccc2)n1 | nude mouse (female) | tumor | oral | 20 mg/kg | 1 h after last dose | end of therapy | 7.74 µM |
| O=C(N[C@H](Cc1c[nH]c2ccccc12)C(=O)Nc1ccncc1)c1ccc(-c2ccc(F)c(Cl)c2)cc1F | Swiss Webster mouse, female | plasma | oral | 50 mg/kg | 8 h | 20% Kolliphor vehicle | 7.7 µM |
| CSc1cc(C)nc(SC)c1NC(=O)CN1CCN(CCSc2nc3ccccc3[nH]2)CC1.Cl | mouse | cerebrum | intranasal | 10 µL in 0.01 N HCl daily | 120 min | 7 days dosing | not detected |

A few entries again:
| Structure (SMILES) | species | medium | route | dose | time | setting | concentration |
| --- | --- | --- | --- | --- | --- | --- | --- |
| Cn1cc([C@H]2C[C@H]3CSC(N)=N[C@@]3(c3ccc(F)cc3F)CO2)cn1 | mouse 129/SVE male | plasma | subcutaneous | 3 mg/kg | 3 h | – | 0.069 µM |
